Results of several laboratories.
Protocols differ between the studies behind these lines. Values joined by “and” are separate records of one study, mostly repeats; a detail may differ.
Target: Ephrin type-A receptor 8 (EPHA8, Homo sapiens, UniProt P29322)
One construct used (P29322 28-1005): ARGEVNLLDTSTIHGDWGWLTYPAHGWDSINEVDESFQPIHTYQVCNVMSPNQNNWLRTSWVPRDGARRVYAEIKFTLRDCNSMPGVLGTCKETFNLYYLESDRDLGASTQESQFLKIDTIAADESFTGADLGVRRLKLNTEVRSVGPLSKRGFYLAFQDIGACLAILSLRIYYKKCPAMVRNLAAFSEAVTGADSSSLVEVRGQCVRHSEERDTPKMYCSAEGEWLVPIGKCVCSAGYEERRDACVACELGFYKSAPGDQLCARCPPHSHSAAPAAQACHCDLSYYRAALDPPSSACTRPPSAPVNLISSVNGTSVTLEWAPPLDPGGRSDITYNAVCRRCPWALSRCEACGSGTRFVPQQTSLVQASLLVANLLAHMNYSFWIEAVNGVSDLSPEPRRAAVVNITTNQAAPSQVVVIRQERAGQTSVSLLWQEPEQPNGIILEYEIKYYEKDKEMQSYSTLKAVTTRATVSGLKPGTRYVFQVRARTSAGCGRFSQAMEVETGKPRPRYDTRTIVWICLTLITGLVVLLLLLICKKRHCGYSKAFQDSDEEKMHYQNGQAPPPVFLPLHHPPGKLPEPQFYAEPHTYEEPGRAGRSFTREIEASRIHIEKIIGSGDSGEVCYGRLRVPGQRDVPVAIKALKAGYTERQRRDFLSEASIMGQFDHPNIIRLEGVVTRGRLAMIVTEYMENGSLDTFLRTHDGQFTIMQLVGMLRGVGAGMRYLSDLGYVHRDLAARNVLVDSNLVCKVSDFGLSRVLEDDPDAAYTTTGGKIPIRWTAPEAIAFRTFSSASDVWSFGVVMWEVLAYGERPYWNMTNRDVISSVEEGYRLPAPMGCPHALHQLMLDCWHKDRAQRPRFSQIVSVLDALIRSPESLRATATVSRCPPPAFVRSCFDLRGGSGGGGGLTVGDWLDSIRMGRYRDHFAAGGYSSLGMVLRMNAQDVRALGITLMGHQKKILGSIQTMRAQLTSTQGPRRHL

CC(C)=CC1OC(C)(C)C2C=C3C(=O)C(Cl)=CC(O)C3C3C(O)C4OC4C(=O)C132 (stereo not drawn) — remaining binding (cell-free assay, competition with immobilised ligand; 10 µM): 88%
COc1c(OCCCN2CCOCC2)ccc2c1N=C(NC(=O)c1cnc(N)nc1)N1CCN=C21 — remaining activity (kinase activity, inhibitor; 1 µM; relative to: untreated control): 109%
CNC(=O)C1CCN(c2cc(C)c(F)cc2NC(=O)c2ccc(-c3cc(O)ccc3C)c(C)c2)CC1 — remaining binding (binding, competition with immobilised ligand; 1 µM): 1.3%
CNC1C[S+]2CC[S+]3CC[S+](C1)[Ru-4]321([N]=C=S)[n]2c3ccc(OC)cc3c3c4c(c5cc(F)c[n+]1c5c32)C(=O)NC4=O (stereo not drawn) — remaining binding (KinomeScan; 0.1 µM; relative to: untreated): 100%
Cc1cccc(O[C@H]2CCC[C@@H](C(C)CNCc3ccncc3)C2)c1 (relative stereo) — inhibition (cell-free assay; 10 µM): -4%
Cc1nc2c(F)cc(-c3nc(Nc4ccc(CNC(=O)CCCCCCC(=O)NO)cc4)ncc3F)cc2n1C(C)C — inhibition (enzyme activity, inhibitor; 1 µM): 52%
C=CC(=O)N1CCCC(n2c(=O)c3ncccc3n(Cc3ccc(Oc4ccccc4)cc3)c2=O)C1 (stereo not drawn) — remaining binding (cell-free assay, competition with immobilised ligand; 1 µM): 92%
CCN1CCN(Cc2ccc(NC(=O)c3ccc(C)c(NC(=O)c4cncc(-c5cccs5)c4)c3)cc2C(F)(F)F)CC1 — remaining binding (binding, competition with immobilised ligand; 1 µM): 0%
COCC12C(=O)NC3C4(C(OC)CC1O)C1CC5(O)C(OC)C(O)C(OC(C)=O)(C1C5OC(=O)c1ccccc1)C3(O)C(OC)C24 (stereo not drawn) — remaining activity (kinase activity, inhibitor, ProQinase kinase profiling; 25 µM; relative to: control): 111% and 115%
O=C(Nc1ccc(Oc2ncnc3[nH]cc(-c4ccccc4)c23)c(F)c1)c1c2n(n(-c3cc(F)ccc3F)c1=O)CCCC2 — inhibition (enzyme activity, inhibitor; 0.5 µM): -12%
O=C(Cc1ccc(OCc2ccccc2)cc1)NC1(C(=O)O)CCN(C(=O)c2ccc(-c3cccc(Cl)c3)cc2)CC1 — activity vs control (enzyme activity, inhibitor; 10 µM): 101%
C=CC(=O)Nc1cccc(-c2cnc3[nH]cc(C(=O)NC(C)(C)C)c3n2)c1 — inhibition (enzyme activity, inhibitor; 0.1 µM): 5%
NC(=O)C[C@H]1CCc2sc3ncnc(O[C@H]4CC[C@H](N5CCOCC5)CC4)c3c21 — inhibition (enzyme activity, inhibitor; 10 µM): 11%
COc1cc(Nc2nccc(-c3cnn4nc(OC)ccc34)n2)cc(C(F)(F)F)c1 — remaining binding (binding, competition with immobilised ligand; 1 µM): 100%
Nc1ncc(-c2cc(-c3cnn(CC(F)(F)F)c3)ncc2F)nc1C(=O)NC1CNCC(F)C1 (stereo not drawn) — remaining activity (enzyme activity; 1 µM; relative to: DMSO control): 99%

Excerpt of the above:
COCC12C(=O)NC3C4(C(OC)CC1O)C1CC5(O)C(OC)C(O)C(OC(C)=O)(C1C5OC(=O)c1ccccc1)C3(O)C(OC)C24 (stereo not drawn) — remaining activity (kinase activity, inhibitor, ProQinase kinase profiling; 25 µM; relative to: control): 111% and 115%
CNC1C[S+]2CC[S+]3CC[S+](C1)[Ru-4]321([N]=C=S)[n]2c3ccc(OC)cc3c3c4c(c5cc(F)c[n+]1c5c32)C(=O)NC4=O (stereo not drawn) — remaining binding (KinomeScan; 0.1 µM; relative to: untreated): 100%
